# Assay results of several laboratories.
# A part holds a random share of what one study measured.

# Block 1
# Target: Sal-like protein 4, full length isoform B (SALL4, Homo sapiens, UniProt Q9UJQ4-2, residues 1-616)
# Method: universal PBM
# Form: double-stranded DNA, one strand shown
# Matrix: in vitro
# Tested at: not given
# Notes: 8-mer, flanks averaged, mean of replicates
# Reading: higher = stronger binding
Sequence,E-score
GAGACGCA,-0.184
CCTGCCCA,-0.192
TATACCGA,0.166
ATTACCTC,0.116
AGACCATA,0.206
CAAAGTGG,-0.242

# Block 2
# Target: Prothrombin, mature alpha-thrombin (F2, Homo sapiens, UniProt P00734)
# Method: aptamer microarray, sandwich
# Form: DNA with 2'F-ANA
# Matrix: in vitro
# Tested at: 200 nM
# Notes: whole 15-mer aptamer, many near background
# Together with: Cy3 exosite-II aptamer, 400 nM
# Reading: higher = stronger binding
# Sequence: GGTTGGTGTGGTTGG
Modification,mean fluorescence intensity [a.u.]
2'F-ANA at 2 3 5 12 13,183
2'F-ANA at 2 3 4 8 9 10 11 12 13 14 15,150
2'F-ANA at 1 2 4 5 7 10 13 15,48
2'F-ANA at 4 7 8 9 12 14 15,135
2'F-ANA at 4 5 6 8 10 11 12 13 14 15,59.3
2'F-ANA at 3 4 8 9 10 12 13 14,188

# Block 3
# Target: RING finger protein unkempt homolog, zinc fingers 1-6, GST-SBP tag (UNK, Homo sapiens, UniProt Q9C0B0, residues 30-357)
# Method: RNA Bind-n-Seq
# Form: RNA
# Matrix: in vitro
# Tested at: not given
# Notes: RNA with constant flanks, human and mouse sites, ends assumed
# Relative to: input RNA pool
# Reading: higher = stronger binding
# Shared flanks, not repeated: GGGAGUUCUACAGUCCGACGAUC … CAACAGAGGAUUGAGCAUCA
# Target sequence (chain): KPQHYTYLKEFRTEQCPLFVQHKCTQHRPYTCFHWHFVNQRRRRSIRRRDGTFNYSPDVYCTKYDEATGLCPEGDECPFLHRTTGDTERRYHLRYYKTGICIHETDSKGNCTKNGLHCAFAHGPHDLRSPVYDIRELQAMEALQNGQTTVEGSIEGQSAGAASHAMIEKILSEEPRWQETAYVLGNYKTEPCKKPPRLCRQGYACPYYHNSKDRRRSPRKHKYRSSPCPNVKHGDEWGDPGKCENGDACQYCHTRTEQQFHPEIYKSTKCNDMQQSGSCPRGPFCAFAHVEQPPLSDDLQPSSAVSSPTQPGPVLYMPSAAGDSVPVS
Sequence,bound/input enrichment
UGCUAUGACUGAGGUGGCCUCCAGGCUCUCUGCACACUUACAGAUUUUUUUAACGGGAUCAAAUUGUACAUGCUGUUUUGUAACUUUUUCACUCAACAGUCCCAUGCCUAUCUUGCUGUG,0.0936 ratio
GUGAAGACAUCACUUCCCCUCGGAGUCCCCUGAGUAUUUACAAGCCUCAGCAGGGCAGCAUAGCUAUGUUCUGUUUGCCGUUUGUUGGUUUGCUUCUGUAUAGGUCUCUUUCCUUCCUCC,0.332 ratio
AUUCUUUUAUCACCAAAAAAGAGAAGAAAUAUUGCAGUGAAUGAAGAUUCCUCUGCAUUUUAGCACUGCUUUUUCAACUGUAGUUGGCUUUUGAAUGAGGAUGACAAUGGAAGAGAUGAA,0.181 ratio
AACACGACAAAUCGAGGAACGGAAAAAACAGCUGAGCUUCAUCAGCCCCCCUGCACCUCAGCCAAAGACACCUUCUUCUUCCCAACCAGAGCGACUUCCCAUCGGCAACACUAUUCAGCC,0.348 ratio
CUUGAACCUAACAAGUCCAUCUUCAAGCAAAUGAAAACUCAUCCACCAUACACCAUGUGCUUUAGAGUGAAAUUCUACCCACAUGAACCCUUGAAGAUUAAAGAAGAGCUCACAAGAUAC,0.195 ratio
UUUGGACAGUGCUAUGAGUUUCUUACUCUUCACACAGUGAAAAAGUACUUUCUUCCAAUAAUAGAAAUGGUUCCACAGUUUUUAGAAAACUUAACUGAUGAAGAGCUGAAGAAAGAAGCA,0.558 ratio

# Other studies, line by line
Molecule,target,assay,system,setting,scale,measurement,value
"PhoQ, residues 284 288 289 292 302 303 TNASYF","PhoP, residues 12 14 15 18 19 NFCKL (Escherichia coli, UniProt P23836)","Sort-seq, measured: YFP reporter",E. coli,"PhoQ-PhoP variant library, together with: 10 µM Mg2+","relative to: high Mg2+ state, higher = stronger signaling",fold induction,10.8
